Published values of several laboratories.
Parts stem from different laboratories: compare values within a part only.
Sequence of UniProt Q15759 (whole entry, looked up): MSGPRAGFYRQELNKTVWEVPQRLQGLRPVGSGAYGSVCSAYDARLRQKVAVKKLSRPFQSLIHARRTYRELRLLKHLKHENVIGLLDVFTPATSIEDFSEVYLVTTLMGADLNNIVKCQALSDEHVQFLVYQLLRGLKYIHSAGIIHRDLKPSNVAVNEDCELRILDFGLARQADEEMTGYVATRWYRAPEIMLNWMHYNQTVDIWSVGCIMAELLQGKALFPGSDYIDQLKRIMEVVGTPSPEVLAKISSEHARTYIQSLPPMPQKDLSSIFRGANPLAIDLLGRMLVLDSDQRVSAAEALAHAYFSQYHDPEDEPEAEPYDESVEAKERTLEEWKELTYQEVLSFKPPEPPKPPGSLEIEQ
Sequence of UniProt P51956 (whole entry, looked up): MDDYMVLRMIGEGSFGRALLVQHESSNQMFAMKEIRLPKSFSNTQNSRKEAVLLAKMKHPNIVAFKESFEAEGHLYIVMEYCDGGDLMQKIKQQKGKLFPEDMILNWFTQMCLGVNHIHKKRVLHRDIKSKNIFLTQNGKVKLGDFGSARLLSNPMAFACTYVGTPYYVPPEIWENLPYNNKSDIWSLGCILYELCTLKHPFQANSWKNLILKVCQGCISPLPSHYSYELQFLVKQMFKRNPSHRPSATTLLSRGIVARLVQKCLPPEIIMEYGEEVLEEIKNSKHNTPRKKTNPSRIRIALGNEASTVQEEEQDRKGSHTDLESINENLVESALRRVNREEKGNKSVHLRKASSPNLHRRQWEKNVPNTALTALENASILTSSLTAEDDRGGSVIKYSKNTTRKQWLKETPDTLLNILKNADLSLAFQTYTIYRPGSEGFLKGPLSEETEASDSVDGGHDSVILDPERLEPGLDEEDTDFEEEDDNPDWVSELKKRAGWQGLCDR
Sequence of UniProt Q9H4B4 (whole entry, looked up): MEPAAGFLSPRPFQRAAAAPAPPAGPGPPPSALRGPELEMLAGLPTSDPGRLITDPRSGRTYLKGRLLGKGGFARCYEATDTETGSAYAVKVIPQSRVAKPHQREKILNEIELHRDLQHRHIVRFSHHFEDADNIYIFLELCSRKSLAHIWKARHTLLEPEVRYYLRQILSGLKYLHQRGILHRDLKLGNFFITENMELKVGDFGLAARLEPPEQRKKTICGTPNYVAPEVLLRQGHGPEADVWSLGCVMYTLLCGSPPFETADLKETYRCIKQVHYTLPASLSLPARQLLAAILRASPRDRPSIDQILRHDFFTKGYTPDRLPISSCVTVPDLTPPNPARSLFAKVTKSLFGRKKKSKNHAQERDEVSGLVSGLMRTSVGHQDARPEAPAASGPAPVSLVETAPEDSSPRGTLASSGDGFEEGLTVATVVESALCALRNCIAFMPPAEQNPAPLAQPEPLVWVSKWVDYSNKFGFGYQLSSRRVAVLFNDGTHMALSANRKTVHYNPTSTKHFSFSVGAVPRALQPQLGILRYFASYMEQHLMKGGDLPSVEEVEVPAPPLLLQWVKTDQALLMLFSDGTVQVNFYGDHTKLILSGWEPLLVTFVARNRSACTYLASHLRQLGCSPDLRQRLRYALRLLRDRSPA
Sequence of UniProt Q9HAZ1 (whole entry, looked up): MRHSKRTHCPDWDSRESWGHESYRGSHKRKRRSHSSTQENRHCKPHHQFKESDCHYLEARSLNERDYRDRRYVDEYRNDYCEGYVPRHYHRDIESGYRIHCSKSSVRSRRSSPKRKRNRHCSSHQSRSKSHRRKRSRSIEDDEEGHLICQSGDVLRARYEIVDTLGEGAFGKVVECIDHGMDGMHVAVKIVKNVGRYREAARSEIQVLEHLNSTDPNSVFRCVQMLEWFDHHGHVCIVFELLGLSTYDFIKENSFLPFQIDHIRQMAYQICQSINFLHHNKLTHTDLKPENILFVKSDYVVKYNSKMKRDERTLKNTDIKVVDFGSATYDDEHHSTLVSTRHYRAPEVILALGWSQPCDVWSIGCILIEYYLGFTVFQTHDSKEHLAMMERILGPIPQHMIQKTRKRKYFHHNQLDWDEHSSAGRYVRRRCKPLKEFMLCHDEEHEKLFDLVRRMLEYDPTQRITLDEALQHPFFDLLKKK
Sequence of UniProt Q7KZI7 (whole entry, looked up): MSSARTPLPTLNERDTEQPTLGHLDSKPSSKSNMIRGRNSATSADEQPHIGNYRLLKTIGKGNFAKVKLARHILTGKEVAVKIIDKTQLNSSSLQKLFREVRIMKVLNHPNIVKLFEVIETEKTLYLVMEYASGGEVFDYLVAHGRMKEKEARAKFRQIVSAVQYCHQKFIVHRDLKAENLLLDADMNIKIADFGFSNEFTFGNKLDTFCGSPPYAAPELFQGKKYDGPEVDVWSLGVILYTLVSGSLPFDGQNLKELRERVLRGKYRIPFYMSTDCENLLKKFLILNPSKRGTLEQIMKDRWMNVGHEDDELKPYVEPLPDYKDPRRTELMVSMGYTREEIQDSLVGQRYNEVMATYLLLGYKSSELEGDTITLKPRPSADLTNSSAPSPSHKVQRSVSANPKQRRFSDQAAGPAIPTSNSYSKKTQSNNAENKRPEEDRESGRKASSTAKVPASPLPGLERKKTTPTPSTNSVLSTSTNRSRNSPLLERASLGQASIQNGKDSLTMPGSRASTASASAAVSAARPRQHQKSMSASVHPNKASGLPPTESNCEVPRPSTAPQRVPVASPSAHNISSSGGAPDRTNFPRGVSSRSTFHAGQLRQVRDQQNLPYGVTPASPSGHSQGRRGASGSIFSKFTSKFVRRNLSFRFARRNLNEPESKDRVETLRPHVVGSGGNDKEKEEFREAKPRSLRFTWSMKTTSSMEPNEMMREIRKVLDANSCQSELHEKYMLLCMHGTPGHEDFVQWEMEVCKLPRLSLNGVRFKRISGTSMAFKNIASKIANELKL

Set 1 — method: competition protein-binding microarray; form: double-stranded DNA, one strand shown; matrix: in vitro; concentration: 2 µM; together with: Cbf1 competitor, 0.05 µM; direction: higher = stronger binding; endpoint: fluorescence intensity; shared flanks, not repeated: … GTCTTGATTCGCTTGACGCTGCTG
Target: Phosphate system positive regulatory protein PHO4, full length, GST-tagged (PHO4, Saccharomyces cerevisiae, UniProt P07270, residues 1-312)
Notes: whole 60-bp probe, lowest competitor level
Residues (chain): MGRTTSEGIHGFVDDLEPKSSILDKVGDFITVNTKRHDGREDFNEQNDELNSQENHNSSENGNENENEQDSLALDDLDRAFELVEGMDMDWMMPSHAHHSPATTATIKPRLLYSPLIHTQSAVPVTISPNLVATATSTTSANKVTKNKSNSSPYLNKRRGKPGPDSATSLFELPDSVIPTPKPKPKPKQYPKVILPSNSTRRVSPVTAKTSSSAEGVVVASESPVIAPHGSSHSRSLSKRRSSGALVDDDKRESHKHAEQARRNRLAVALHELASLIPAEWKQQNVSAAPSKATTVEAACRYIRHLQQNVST
Sequence = GTCAAGAACGGTGTCCACATGGTCTTCGCTTCTTTC; result = 8860 a.u.
Sequence = ATGCTACTAGTAACACACATGTACAGCCTGTTGCAA; result = 8180 a.u.
Sequence = AAGTTGGTAAGCGACCACGTGATGGTGCTTTGGGTT; result = 16500 a.u.
Sequence = CGTTGGATCTAGTTCCACGTGGCCGAGCTTCAAGCC; result = 15500 a.u.
Sequence = CGAGCCTCTGAAAAGCACGCTCTAATAATTTTACAT; result = 9050 a.u.
Sequence = AAATTACTAAGTTGAACAGTGGGTGACGCCGTATGA; result = 3800 a.u.
Sequence = TGTGTCAATAACCCCATAATTTGAACTTCTTTCATC; result = 3140 a.u.
Sequence = GCTGCTGCTGCGAGTCACGGGCTCTGTTTACTACTA; result = 5090 a.u.

Set 2 — Structure (SMILES): O=C1c2ccccc2-c2n[nH]c3cccc1c23; observed: enzyme activity; action: inhibitor; concentration: 0.5 µM; relative to: control; endpoint: remaining activity
target = MAPK11 (Homo sapiens, UniProt Q15759); result = 92.8%
target = PLK3 (Homo sapiens, UniProt Q9H4B4); result = 99.6%
target = NEK3 (Homo sapiens, UniProt P51956); result = 84.3%
target = CLK4 (Homo sapiens, UniProt Q9HAZ1); result = 75.5%
target = MARK2 (Homo sapiens, UniProt Q7KZI7); result = 59.9%

Set 3 — method: aptamer microarray, sandwich; form: DNA with 2'F-ANA; matrix: in vitro; concentration: 200 nM; together with: Cy3 exosite-II aptamer, 400 nM; direction: higher = stronger binding; endpoint: mean fluorescence intensity; sequence: GGTTGGTGTGGTTGG
Target: Prothrombin, mature alpha-thrombin (F2, Homo sapiens, UniProt P00734)
Notes: whole 15-mer aptamer, many near background
Modification = 2'F-ANA at 1 2 3 4 5 8 9 11 12; result = 102 a.u.
Modification = 2'F-ANA at 1 3 4 7 9 10 12 14; result = 51.8 a.u.
Modification = 2'F-ANA at 3 4 9 14; result = 328 a.u.
Modification = 2'F-ANA at 1 3 4 5 6 7 8 9 12; result = 161 a.u.
Modification = 2'F-ANA at 3 5 6 9 10 11 13; result = 66.6 a.u.
Modification = 2'F-ANA at 1 3 5 8 9 10 15; result = 47.3 a.u.
Modification = 2'F-ANA at 2 5 7 9 10 11 12 13; result = 50.9 a.u.
Modification = 2'F-ANA at 2 3 4 7 8 9 13 14; result = 265 a.u.

Set 4 — observed: binding; method: radioligand binding; concentration: 10 µM; endpoint: inhibition
Target: Alpha-1B adrenergic receptor (ADRA1B, Homo sapiens, UniProt P35368)
Sequence of UniProt P35368 (whole entry, looked up): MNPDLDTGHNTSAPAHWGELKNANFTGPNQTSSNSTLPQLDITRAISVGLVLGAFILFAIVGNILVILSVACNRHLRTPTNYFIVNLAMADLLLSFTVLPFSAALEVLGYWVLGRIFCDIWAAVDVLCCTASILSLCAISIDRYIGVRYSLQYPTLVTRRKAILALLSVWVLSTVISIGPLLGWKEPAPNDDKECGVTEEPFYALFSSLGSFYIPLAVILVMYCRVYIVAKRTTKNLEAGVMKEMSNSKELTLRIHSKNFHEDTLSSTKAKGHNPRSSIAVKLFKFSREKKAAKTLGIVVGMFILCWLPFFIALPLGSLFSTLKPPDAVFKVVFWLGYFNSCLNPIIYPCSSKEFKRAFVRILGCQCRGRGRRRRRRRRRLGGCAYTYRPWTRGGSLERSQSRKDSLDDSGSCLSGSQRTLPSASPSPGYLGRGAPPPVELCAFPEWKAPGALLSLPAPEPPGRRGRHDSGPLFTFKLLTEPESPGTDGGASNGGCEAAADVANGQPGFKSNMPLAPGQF
SMILES = O=C(Nc1cccnn1)N1CC(CC=Cc2cncc(Oc3ccc(C(F)(F)F)cn3)n2)C1; result = 0.27%
SMILES = Cc1nccc(COC(=O)N2C[C@@H]3[C@@H](CNC(=O)c4ccc5[nH]nnc5c4)[C@@H]3C2)n1; result = 30.2%
SMILES = Cc1c(NC(=O)c2cc(C(N)=O)nc3cc(F)ccc23)c(C(F)(F)F)nn1Cc1ccc(C(C)(C)C)cc1; result = -5.98%
SMILES = CNC(=O)c1ccc(Nc2ncc(C(F)(F)F)c(NCc3nccnc3N(C)S(C)(=O)=O)n2)cc1; result = -0.22%
SMILES = CC1=C(C#N)[C@@H](c2ccc3[nH]nc(C)c3c2)C(C#N)=C(c2ccc(Cl)cc2)N1; result = 21.7%
SMILES = CCOC(=O)c1cc2cc(-c3cc(C(=O)NCc4ccc(C(=O)O)cc4)nn3C)ccc2[nH]1; result = -1.29%
SMILES = CC(C)CC(=O)N1CCc2nc(-c3ccc(Br)cc3)nc(N(C)Cc3ccccc3)c2C1; result = 17.5%
SMILES = Cc1cc(C)c(-n2ccn3nc(-c4cccnc4)cc23)cc1NC(=O)c1cc(C#N)cc(S(F)(F)(F)(F)F)c1; result = -0.87%
SMILES = CCOCCn1cc(C(=O)Nc2ccc(-n3nc(-c4cccnc4)cc3C(F)(F)F)cn2)ccc1=O; result = -16.4%
SMILES = C[C@H](NC(=O)c1cnc2n1[C@](C)(Cc1ccc(C#N)cc1)C(=O)N2c1cc(Cl)c(F)c(Cl)c1)C(=O)NC1(c2ccccn2)CC1; result = 2.35%
SMILES = Cc1cc(-n2nc(Cc3cc(F)cc(C(F)(F)F)c3)nc2C)ccc1C(N)=O; result = 6.84%
SMILES = Nc1c(C(=O)NCc2ccc(C(=O)NCCCC3CCCCC3)cc2)cnn1-c1ccccc1; result = 8.69%
SMILES = CS(=O)(=O)NCC[C@H](NC(=O)c1cncc2c1cnn2-c1ccc(F)cc1)c1ccnc(S(C)(=O)=O)c1; result = 15.8%
SMILES = CN(C)C(=O)Cn1cc(-c2nc([C@@](C)(c3ccc(-c4cnc(N)nc4)cc3)C3CC3)no2)cn1; result = 2.84%
SMILES = O=C(O)c1cc(-c2ccc(C3CCNCC3)cc2)c2ccc(-c3ccc(C(F)(F)F)cc3)cc2c1; result = 85.8%

Repeated from above (set 1):
Sequence = CGAGCCTCTGAAAAGCACGCTCTAATAATTTTACAT; result = 9050 a.u.
Sequence = AAATTACTAAGTTGAACAGTGGGTGACGCCGTATGA; result = 3800 a.u.
Sequence = TGTGTCAATAACCCCATAATTTGAACTTCTTTCATC; result = 3140 a.u.
